Experimental data pooled from the literature.
Parts stem from different laboratories: compare values within a part only. Changes are numbered by the printed parent chain.

Study 1
Target: Ras GTPase-activating protein-binding protein 1, full length (G3BP1, Homo sapiens, UniProt Q13283)
Chain of UniProt Q13283 (whole entry, looked up): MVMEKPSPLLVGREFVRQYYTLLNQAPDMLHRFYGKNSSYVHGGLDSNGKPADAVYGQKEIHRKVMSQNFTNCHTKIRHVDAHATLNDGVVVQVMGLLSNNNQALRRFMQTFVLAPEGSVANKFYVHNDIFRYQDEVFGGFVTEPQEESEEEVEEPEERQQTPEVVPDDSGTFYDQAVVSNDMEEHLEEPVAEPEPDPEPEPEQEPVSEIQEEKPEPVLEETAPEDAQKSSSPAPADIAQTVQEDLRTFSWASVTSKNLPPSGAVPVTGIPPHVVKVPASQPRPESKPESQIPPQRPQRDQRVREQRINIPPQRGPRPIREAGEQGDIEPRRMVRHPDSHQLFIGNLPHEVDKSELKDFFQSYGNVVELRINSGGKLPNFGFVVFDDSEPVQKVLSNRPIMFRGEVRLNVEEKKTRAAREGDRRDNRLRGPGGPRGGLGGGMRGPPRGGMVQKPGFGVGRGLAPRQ
Method: RNA Bind-n-Seq
Form: RNA
Sample: in vitro
Concentration: 200 nM
Notes: whole 134-nt RNA, ends assumed
Together with: 150 mM LiCl
Relative to: input library
Direction: higher = stronger binding
Measurement: log2 enrichment
Each molecule: 7-deaza-guanosine replaces G
Oligonucleotide = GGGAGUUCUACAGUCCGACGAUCCAAGUCCUGUGCUACACAUCGUAUGUACCGAAUCGGAGGUUUUUUUGGAAAAAGGAAAGUAUUAUGUUACGCCGUUCGGAUCUGCACUUCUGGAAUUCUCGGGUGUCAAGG; result = -0.496
Oligonucleotide = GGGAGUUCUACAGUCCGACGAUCUAACUUUAGAGGAGGAUCUGAUGGAUAUGGCAGUGGACGUGGAUUUGGGGAUGGCUAUAAUGGGUGUGGAGGAGGACCUGGAGGUGGCAAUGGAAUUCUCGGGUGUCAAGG; result = 0.132
Oligonucleotide = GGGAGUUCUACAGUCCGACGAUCGCAGGAAGUAAAAACAAAAAGAAAUGCUUCGGAUAGUGGCAGGGGUGGGGGUUGCUAAGGAAAGGGUGGGAUGGGAGUGGGUAAAGAGUUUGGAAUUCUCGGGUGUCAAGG; result = -0.0127
Oligonucleotide = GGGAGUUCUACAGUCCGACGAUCCUCAAGUCCUGUGCUACACAUCGUAUGUACCGAAUCGGAAAGGAGGAAAAAGGAAAGUAUUAUGUUACGCCGUUCGGAUCUGCACUUCCAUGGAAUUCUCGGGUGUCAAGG; result = -0.432
Oligonucleotide = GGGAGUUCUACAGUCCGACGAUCGCAGGAAGUAAAAACAAAUGCAAAUGCUUCGGAUAGUGGCAGGGGUGGGGGUUGCUAAGGAAAGGGUGGGAUGGGAGUGGGUAAAGAGUUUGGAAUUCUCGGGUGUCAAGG; result = -0.225
Oligonucleotide = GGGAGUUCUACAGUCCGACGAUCCCUGUGCUACACAUCGUAUGUACCGAAUCGGGCCCCCCGGGCCCCCCGGGCCCCCCGGGGAAAGUAUUAUGUUACGCCGUUCGGAUCUGCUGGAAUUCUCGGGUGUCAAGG; result = -1.75
Oligonucleotide = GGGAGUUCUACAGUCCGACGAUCCCUGUGCUACACAUCGUAUGUACCGAAUCGGGCCCCCCGGCCCCCCGGGGCCCCCCGGGGAAAGUAUUAUGUUACGCCGUUCGGAUCUGCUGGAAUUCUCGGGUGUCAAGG; result = 0.0491

Study 2
Target: CCNB1, cyclin fold, Cln2 fusion (human)
Method: yeast growth competition, sequencing
Sample: yeast
Notes: weak parent motif
Relative to: not given
Direction: higher = stronger binding
Measurement: normalised enrichment score
Starting sequence: RB1 docking peptide (human); PKPLKKLRFDIEG
Variant = E12I; result = 1.04
Variant = K5A L7A; result = 0.206
Variant = K6V; result = 0.292
Variant = I11L; result = 1.42
Variant = R8Y; result = 0.545
Variant = G13F; result = 0.0402
Variant = K2M; result = 0.344
Variant = K5A; result = 0.0794

Study 3
Target: Interferon regulatory factor 7, full length, phosphomimetic (IRF7, Homo sapiens, UniProt Q92985, residues 1-503, S471D/S472D/S475D/S476D/S477D/S483D/S484D/S487D)
Method: protein-binding microarray
Form: double-stranded DNA, one strand shown
Sample: in vitro
Concentration: 2200 nM top
Notes: 60-bp whole probe
Together with: salmon DNA 0.4 mg/ml
Relative to: random background probes
Direction: higher = stronger binding
Measurement: fitted relative affinity
Shared flanks, not repeated: GCCTAGCAC … GTCTTGATTCGCTTGACGCTGCTG
Construct (chain): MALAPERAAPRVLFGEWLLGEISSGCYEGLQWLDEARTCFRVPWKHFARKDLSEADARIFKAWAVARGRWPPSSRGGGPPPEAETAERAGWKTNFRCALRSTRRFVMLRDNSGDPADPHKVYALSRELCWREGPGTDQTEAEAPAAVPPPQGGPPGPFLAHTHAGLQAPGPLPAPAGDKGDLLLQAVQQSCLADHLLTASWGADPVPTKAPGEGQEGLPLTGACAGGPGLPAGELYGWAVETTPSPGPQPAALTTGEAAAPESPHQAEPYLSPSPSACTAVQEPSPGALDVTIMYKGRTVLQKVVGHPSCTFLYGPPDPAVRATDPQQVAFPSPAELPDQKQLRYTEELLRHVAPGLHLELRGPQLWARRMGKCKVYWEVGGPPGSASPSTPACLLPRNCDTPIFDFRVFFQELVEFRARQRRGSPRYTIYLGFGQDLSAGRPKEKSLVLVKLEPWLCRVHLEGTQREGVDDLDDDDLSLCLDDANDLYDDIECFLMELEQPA
Oligonucleotide = TTAGGTTTCGGTTCCGGTAAGTGCTAG; result = 11.3 z-score
Oligonucleotide = TTAGGTTTCGGGTTACGGTTAGTGCTA; result = 10.9 z-score
Oligonucleotide = GACGAAATCAGTATCGAGACGTGCTAG; result = 0.129 z-score
Oligonucleotide = GACGGTATCGGGACTGGGGAAGTGCTA; result = -0.563 z-score
Oligonucleotide = GACGATTTCGGGATTCGAGACGTGCTA; result = 2.43 z-score
Oligonucleotide = TACGGTTTCCTTTTCCTGACGTGCTAG; result = 5.87 z-score

Single results of other studies
Substance = PhoQ, residues 284 288 289 292 302 303 TASMAF; target = PhoP, residues 12 14 15 18 19 SEGLL (Escherichia coli, UniProt P23836); test = Sort-seq, item: YFP reporter; system = E. coli; conditions = PhoQ-PhoP variant library, together with: 10 µM Mg2+; how to read = relative to: high Mg2+ state, higher = stronger signaling; measurement = fold induction; result = 2.92

Excerpt of the above (study 2):
Variant = R8Y; result = 0.545
Variant = K5A L7A; result = 0.206
